Published values pooled from the literature.
Each line is one published result; not all experiments were run side by side. ± gives the spread as reported. ≈ marks a conversion by molar mass, not a printed value.
Organism: Staphylococcus epidermidis

SMILES = CCc1cc(=O)c2c(OCC(O)CNC(C)(C)C)c3ccoc3c(OC)c2o1 (stereo not drawn); assay = broth microdilution; test system = ATCC 12228; setting = 19 h, 35 °C; MIC = > 256 µg/mL
SMILES = CCOC(=O)c1c(N)csc1-c1cn(-c2ccccc2)nc1-c1ccc(C)cc1; assay = broth microdilution; test system = clinical urinary isolate; setting = compound gamma-irradiated 10 kGy; MIC = 0.124 ± 0.5 µg/mL (≈ 0.307 µM)
SMILES = Cc1ccc(C(C)C)cc1.Cc1ccc(C(C)C)cc1.[Cl][Ru][Cl].[Cl][Ru][Cl]; assay = broth microdilution; test system = ATCC 12228; setting = 37 °C; MIC = > 1000 µg/mL
SMILES = CN[C@H](CC(C)C)C(=O)N[C@H]1C(=O)N[C@@H](CC(N)=O)C(=O)N[C@H]2C(=O)N[C@H]3C(=O)N[C@H](C(=O)N[C@H](C(=O)O)c4cc(O)cc(O)c4-c4cc3ccc4O)[C@H](O)c3ccc(c(Cl)c3)Oc3cc2cc(c3O[C@@H]2O[C@H](CO)[C@@H](O)[C@H](O)[C@H]2O[C@H]2C[C@](C)(N)[C@H](O)[C@H](C)O2)Oc2ccc(cc2Cl)[C@H]1O; assay = E-test, classical method; test system = Mueller-Hinton agar; setting = 24 h; MIC = 2 µg/mL (≈ 1.38 µM)
SMILES = CCc1cc(=O)c2c(OCC(O)CN3CCOCC3)c3ccoc3c(OC)c2o1 (stereo not drawn); assay = broth microdilution; test system = ATCC 12228; setting = 19 h, 35 °C; MIC = > 256 µg/mL
SMILES = CCCCCCCCCC(=O)N[C@@H](CCCCN)CN1CC(=O)N(c2ccc(N3CN(C[C@H](CCCCN)NC(=O)CCCCCCCCC)CC3=O)cc2)C1; assay = microbial growth; test system = MRSE; setting = drug-resistant strain; MIC = < 6 µg/mL
SMILES = CCc1cc(=O)c2c(O)c3ccoc3c(OC)c2o1; assay = broth microdilution; test system = ATCC 12228; setting = 19 h, 35 °C; MIC = 64 µg/mL (≈ 246 µM)
SMILES = Cc1cc(C)n(C(N)=S)n1.Cc1ccc(C(C)C)cc1.[Cl][Ru][Cl]; assay = broth microdilution; test system = ATCC 12228; setting = 37 °C; MIC = 62.5 µg/mL
SMILES = CC[C@H](C)[C@H](NC(=O)[C@H](Cc1c[nH]cn1)NC(=O)[C@H](Cc1c[nH]cn1)NC(=O)[C@H](Cc1ccccc1)NC(=O)[C@@H](N)Cc1ccccc1)C(=O)N[C@@H](Cc1ccccc1)C(=O)N[C@@H](CCCNC(=N)N)C(=O)NCC(=O)N[C@@H](CCCCN)C(=O)N[C@H](C(=O)N[C@@H](Cc1c[nH]cn1)C(=O)N[C@H](C(=O)NCC(=O)N[C@@H](CCCCN)C(=O)N[C@H](C(=O)N[C@H](C(=O)N[C@@H](Cc1c[nH]cn1)C(=O)N[C@@H](CCCNC(=N)N)C(=O)N[C@@H](CC(C)C)C(=O)N[C@H](C(=O)N[C@H](C(=O)NCC(N)=O)[C@@H](C)O)C(C)C)[C@@H](C)CC)[C@@H](C)O)C(C)C)C(C)C; assay = broth microdilution; test system = ATCC 1435; setting = 18 h, 37 °C; MIC = 3.1 µg/mL (≈ 1.2 µM)

A few entries again:
SMILES = CCc1cc(=O)c2c(O)c3ccoc3c(OC)c2o1; assay = broth microdilution; test system = ATCC 12228; setting = 19 h, 35 °C; MIC = 64 µg/mL (≈ 246 µM)
